Experimental data pooled from the literature.
Lines come from different studies, so protocols differ. Numbers after ± are the reported error.

Compound	test	system	setting	how to read	endpoint	result
O=C(O)CCCOc1ccc([18F])cc1-c1cc(-c2ccccc2C(F)(F)F)n(-c2ccccc2)n1	–	mouse, bone	intravenous, dose not given, 180 min	–	tissue uptake	1.74 ± 0.42 %ID/g
O=C([O-])CN1CCN(CC(=O)[O-])CCN(C(CO)C(O)CO)CCN(CC(=O)[O-])CC1.[Dy+3] (centres unmarked)	ICP-MS	cynomolgus monkey, feces	1 days post-injection	reference: dose	cumulative fecal excretion	0.04%
COc1cccc(OC)c1-c1cc(C(=O)NC2(C(=O)O)C3CC4CC(C3)CC2C4)nn1-c1ccc(C(=O)N(C)CCCN(C)CCCN(C)C(=O)[C@H](CCCCNC(=O)[C@H](CC(C)C)NC(=O)C2OC2C(=O)O)NC(=O)CN2CCN(CC(=O)[O-])CCN(CC(=O)[O-])CCN(CC(=O)[O-])CC2)cc1C(C)C.[177Lu+3] (mixture of isomers)	–	mouse, HT-29 xenograft	4 h post injection, biodistribution	reference: tumour over blood uptake	tumour-to-blood ratio	7.99
Cc1noc(C)c1Cn1cc(N2C(=O)CN(Cc3cccc(OS(=O)(=O)O)c3)C2=O)cn1	–	Sprague-Dawley rat, male	oral, 100 mg/kg of parent drug, 0.25 h	–	plasma concentration	3020 ng/mL
CCC1(CC)CC(=O)N(C2c3cc(C(=O)NC4c5ccccc5CC4O)ccc3OC2(C)COC)C(=N)N1 (centres unmarked)	–	rat plasma	–	–	unbound fraction	0.232
CC(C)C[C@H](NC(=O)[C@H](CCCN)NC(=O)CNC(=O)[C@@H](NC(=O)[C@H](C)NC(=O)[C@@H]1CSCSC[C@H](NC(=O)CC[C@H](N)C(=O)O)C(=O)N[C@@H](CC(N)=O)C(=O)N[C@@H]([C@@H](C)O)C(=O)N[C@@H](C)C(=O)N[C@@H]([C@@H](C)O)C(=O)N1)[C@@H](C)O)C(=O)N[C@@H](C)C(=O)N[C@@H](CCC(=O)O)C(=O)N[C@@](C)(Cc1ccccc1)C(=O)N[C@@H](CC(C)C)C(=O)N[C@H](C(=O)N[C@@H](CCCNC(=N)N)C(=O)N[C@@H](CO)C(=O)N[C@@H](CO)C(=O)N[C@@H](CC(N)=O)C(=O)N(C)[C@@H](CC(N)=O)C(=O)N[C@@H](Cc1ccccc1)C(=O)NCC(=O)N1CCC[C@H]1C(=O)N[C@@H](CCCCNC(=O)CC[C@H](NC(=O)CC[C@H](NC(=O)CCCCCCCCCCCCCCCCCCC(=O)O)C(=O)O)C(=O)O)C(=O)N[C@@H](CC(C)C)C(=O)N1CCC[C@H]1C(=O)N1CCC[C@H]1C(=O)N[C@H](C(=O)N[C@@H](CCC(=O)O)C(=O)N[C@H](C(=O)NCC(=O)N[C@@H](CO)C(=O)N[C@@H](CC(N)=O)C(=O)N[C@H](C(=O)N[C@@H](Cc1ccc(O)cc1)C(N)=O)[C@@H](C)O)C(C)C)[C@@H](C)O)C(C)C	–	healthy human, plasma	subcutaneous, 0.4 mg	–	AUC(0-inf)	22800 ng·h/mL
CCn1nc(Cl)c2c1-c1cnc(N)c(c1)O[C@H](C)c1cc(F)ccc1-c1nn(C)cc1C2	–	Balb/c nude mouse, female, plasma	0.5 mg/kg twice daily for 5 days, 1 h	–	free plasma concentration	6.24 nM
CNC(=O)c1ccc(C2CCCCC2)cc1	liver microsome stability	cynomolgus liver microsomes	1 µM	–	hepatic clearance	41 mL/min/kg
CC1(C)OCCc2cc(C(=O)N3CCC(c4nc(-c5ccccc5)n[nH]4)CC3)ccc21	PAMPA	artificial lipid membrane	30 min	–	permeability	886 ± 139 ×10⁻⁶ cm/s
O=C(c1ccc(C2CCCCC2)cc1)N1CCCC1	hepatocyte stability	cryopreserved mouse hepatocytes	1 µM	–	hepatic clearance	79 mL/min/kg
C=CC(=O)N1CCCC(n2c(=O)c3ncccc3n(Cc3ccc(Oc4ccccc4)cc3)c2=O)C1 (centres unmarked)	–	male BALB/c mouse, plasma	oral, 200 mg/kg, 30 min	–	concentration	30400 ng/mL
CN(C)c1cccc(-c2ccc([C@H]3[C@@H](F)[C@@H](F)C[C@@H](F)[C@H]3F)cc2)c1	liver microsome stability	human liver microsomes	1 µM, without NADPH	–	hepatic clearance	3.9 mL/min/kg
CSCCC(C(=O)Nc1ccc2c(c1)OCCO2)N1Cc2ccccc2C1=O (centres unmarked)	PAMPA	brain lipid membrane	10 µM, 4 h	–	permeability coefficient	14.4 ×10⁻⁶ cm/s
CS(=O)(=O)c1ccc(-c2ccc([C@H]3[C@@H](F)[C@@H](F)C[C@@H](F)[C@H]3F)cc2)cn1	liver microsome stability	dog liver microsomes	1 µM	–	hepatic clearance	7.3 mL/min/kg
CC(=O)N([O-])CCCCCNC(=O)CCC(=O)N([O-])CCCCCNC(=O)CCC(=O)N([O-])CCCCCN.[89Zr+4]	radio-TLC	aqueous buffer	3 d, pH 7.2, 37 °C, 89Zr-labelled complex, together with: FeCl3 100-fold excess	–	intact complex	40.7 ± 3.1%
O=C(NCCOc1ccc(F)cc1)c1ccc(C2CCCCC2)cc1	liver microsome stability	human liver microsomes	1 µM, without NADPH	–	hepatic clearance	9.7 mL/min/kg
O=C1C2CC3CC1CC(C(=O)N1CCN(c4ccc([N+](=O)[O-])c5ncccc45)CC1)(C3)C2	–	ICR mice male, plasma	intravenous, 1 mg/kg	–	Vz	2.29 L/kg

For quick reference, copied from above:
Compound	test	system	setting	how to read	endpoint	result
CC(C)C[C@H](NC(=O)[C@H](CCCN)NC(=O)CNC(=O)[C@@H](NC(=O)[C@H](C)NC(=O)[C@@H]1CSCSC[C@H](NC(=O)CC[C@H](N)C(=O)O)C(=O)N[C@@H](CC(N)=O)C(=O)N[C@@H]([C@@H](C)O)C(=O)N[C@@H](C)C(=O)N[C@@H]([C@@H](C)O)C(=O)N1)[C@@H](C)O)C(=O)N[C@@H](C)C(=O)N[C@@H](CCC(=O)O)C(=O)N[C@@](C)(Cc1ccccc1)C(=O)N[C@@H](CC(C)C)C(=O)N[C@H](C(=O)N[C@@H](CCCNC(=N)N)C(=O)N[C@@H](CO)C(=O)N[C@@H](CO)C(=O)N[C@@H](CC(N)=O)C(=O)N(C)[C@@H](CC(N)=O)C(=O)N[C@@H](Cc1ccccc1)C(=O)NCC(=O)N1CCC[C@H]1C(=O)N[C@@H](CCCCNC(=O)CC[C@H](NC(=O)CC[C@H](NC(=O)CCCCCCCCCCCCCCCCCCC(=O)O)C(=O)O)C(=O)O)C(=O)N[C@@H](CC(C)C)C(=O)N1CCC[C@H]1C(=O)N1CCC[C@H]1C(=O)N[C@H](C(=O)N[C@@H](CCC(=O)O)C(=O)N[C@H](C(=O)NCC(=O)N[C@@H](CO)C(=O)N[C@@H](CC(N)=O)C(=O)N[C@H](C(=O)N[C@@H](Cc1ccc(O)cc1)C(N)=O)[C@@H](C)O)C(C)C)[C@@H](C)O)C(C)C	–	healthy human, plasma	subcutaneous, 0.4 mg	–	AUC(0-inf)	22800 ng·h/mL
